Measured values from different studies.
Parts stem from different laboratories: compare values within a part only.
Chain of UniProt Q9NRP7 (whole entry, looked up): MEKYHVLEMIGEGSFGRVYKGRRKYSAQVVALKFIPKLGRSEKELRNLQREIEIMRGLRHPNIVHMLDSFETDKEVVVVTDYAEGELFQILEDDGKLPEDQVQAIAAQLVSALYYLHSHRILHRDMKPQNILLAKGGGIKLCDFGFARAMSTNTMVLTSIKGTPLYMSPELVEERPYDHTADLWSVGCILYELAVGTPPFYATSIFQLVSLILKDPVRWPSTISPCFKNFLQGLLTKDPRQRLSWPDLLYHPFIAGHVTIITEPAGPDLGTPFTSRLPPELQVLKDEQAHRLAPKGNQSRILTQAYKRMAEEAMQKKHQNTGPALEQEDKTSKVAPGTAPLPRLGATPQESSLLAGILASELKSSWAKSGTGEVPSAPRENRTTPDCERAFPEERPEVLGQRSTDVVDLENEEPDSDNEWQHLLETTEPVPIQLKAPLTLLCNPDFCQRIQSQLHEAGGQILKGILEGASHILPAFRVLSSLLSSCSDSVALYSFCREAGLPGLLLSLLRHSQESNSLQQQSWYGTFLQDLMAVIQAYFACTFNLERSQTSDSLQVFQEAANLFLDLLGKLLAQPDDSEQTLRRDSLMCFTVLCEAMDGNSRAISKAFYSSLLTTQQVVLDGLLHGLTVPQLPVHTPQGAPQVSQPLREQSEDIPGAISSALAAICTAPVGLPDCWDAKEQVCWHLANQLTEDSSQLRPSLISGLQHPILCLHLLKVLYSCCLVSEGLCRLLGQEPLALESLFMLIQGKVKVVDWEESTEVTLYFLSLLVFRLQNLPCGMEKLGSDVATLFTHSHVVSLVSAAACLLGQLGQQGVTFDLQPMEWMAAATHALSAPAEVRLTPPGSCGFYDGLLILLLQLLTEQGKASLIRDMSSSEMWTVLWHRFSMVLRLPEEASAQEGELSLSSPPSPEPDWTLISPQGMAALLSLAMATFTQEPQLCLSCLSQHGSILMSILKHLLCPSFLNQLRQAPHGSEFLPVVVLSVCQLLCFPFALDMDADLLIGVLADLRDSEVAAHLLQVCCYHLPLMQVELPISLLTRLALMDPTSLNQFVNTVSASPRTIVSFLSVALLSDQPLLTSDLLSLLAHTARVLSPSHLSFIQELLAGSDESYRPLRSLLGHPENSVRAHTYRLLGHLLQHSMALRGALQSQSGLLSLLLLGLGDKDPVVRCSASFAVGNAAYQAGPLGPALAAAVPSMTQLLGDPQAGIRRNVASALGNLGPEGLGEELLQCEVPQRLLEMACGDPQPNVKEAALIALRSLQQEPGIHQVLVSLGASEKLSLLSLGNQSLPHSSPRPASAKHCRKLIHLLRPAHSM
Chain of UniProt Q9H4A3 (whole entry, looked up): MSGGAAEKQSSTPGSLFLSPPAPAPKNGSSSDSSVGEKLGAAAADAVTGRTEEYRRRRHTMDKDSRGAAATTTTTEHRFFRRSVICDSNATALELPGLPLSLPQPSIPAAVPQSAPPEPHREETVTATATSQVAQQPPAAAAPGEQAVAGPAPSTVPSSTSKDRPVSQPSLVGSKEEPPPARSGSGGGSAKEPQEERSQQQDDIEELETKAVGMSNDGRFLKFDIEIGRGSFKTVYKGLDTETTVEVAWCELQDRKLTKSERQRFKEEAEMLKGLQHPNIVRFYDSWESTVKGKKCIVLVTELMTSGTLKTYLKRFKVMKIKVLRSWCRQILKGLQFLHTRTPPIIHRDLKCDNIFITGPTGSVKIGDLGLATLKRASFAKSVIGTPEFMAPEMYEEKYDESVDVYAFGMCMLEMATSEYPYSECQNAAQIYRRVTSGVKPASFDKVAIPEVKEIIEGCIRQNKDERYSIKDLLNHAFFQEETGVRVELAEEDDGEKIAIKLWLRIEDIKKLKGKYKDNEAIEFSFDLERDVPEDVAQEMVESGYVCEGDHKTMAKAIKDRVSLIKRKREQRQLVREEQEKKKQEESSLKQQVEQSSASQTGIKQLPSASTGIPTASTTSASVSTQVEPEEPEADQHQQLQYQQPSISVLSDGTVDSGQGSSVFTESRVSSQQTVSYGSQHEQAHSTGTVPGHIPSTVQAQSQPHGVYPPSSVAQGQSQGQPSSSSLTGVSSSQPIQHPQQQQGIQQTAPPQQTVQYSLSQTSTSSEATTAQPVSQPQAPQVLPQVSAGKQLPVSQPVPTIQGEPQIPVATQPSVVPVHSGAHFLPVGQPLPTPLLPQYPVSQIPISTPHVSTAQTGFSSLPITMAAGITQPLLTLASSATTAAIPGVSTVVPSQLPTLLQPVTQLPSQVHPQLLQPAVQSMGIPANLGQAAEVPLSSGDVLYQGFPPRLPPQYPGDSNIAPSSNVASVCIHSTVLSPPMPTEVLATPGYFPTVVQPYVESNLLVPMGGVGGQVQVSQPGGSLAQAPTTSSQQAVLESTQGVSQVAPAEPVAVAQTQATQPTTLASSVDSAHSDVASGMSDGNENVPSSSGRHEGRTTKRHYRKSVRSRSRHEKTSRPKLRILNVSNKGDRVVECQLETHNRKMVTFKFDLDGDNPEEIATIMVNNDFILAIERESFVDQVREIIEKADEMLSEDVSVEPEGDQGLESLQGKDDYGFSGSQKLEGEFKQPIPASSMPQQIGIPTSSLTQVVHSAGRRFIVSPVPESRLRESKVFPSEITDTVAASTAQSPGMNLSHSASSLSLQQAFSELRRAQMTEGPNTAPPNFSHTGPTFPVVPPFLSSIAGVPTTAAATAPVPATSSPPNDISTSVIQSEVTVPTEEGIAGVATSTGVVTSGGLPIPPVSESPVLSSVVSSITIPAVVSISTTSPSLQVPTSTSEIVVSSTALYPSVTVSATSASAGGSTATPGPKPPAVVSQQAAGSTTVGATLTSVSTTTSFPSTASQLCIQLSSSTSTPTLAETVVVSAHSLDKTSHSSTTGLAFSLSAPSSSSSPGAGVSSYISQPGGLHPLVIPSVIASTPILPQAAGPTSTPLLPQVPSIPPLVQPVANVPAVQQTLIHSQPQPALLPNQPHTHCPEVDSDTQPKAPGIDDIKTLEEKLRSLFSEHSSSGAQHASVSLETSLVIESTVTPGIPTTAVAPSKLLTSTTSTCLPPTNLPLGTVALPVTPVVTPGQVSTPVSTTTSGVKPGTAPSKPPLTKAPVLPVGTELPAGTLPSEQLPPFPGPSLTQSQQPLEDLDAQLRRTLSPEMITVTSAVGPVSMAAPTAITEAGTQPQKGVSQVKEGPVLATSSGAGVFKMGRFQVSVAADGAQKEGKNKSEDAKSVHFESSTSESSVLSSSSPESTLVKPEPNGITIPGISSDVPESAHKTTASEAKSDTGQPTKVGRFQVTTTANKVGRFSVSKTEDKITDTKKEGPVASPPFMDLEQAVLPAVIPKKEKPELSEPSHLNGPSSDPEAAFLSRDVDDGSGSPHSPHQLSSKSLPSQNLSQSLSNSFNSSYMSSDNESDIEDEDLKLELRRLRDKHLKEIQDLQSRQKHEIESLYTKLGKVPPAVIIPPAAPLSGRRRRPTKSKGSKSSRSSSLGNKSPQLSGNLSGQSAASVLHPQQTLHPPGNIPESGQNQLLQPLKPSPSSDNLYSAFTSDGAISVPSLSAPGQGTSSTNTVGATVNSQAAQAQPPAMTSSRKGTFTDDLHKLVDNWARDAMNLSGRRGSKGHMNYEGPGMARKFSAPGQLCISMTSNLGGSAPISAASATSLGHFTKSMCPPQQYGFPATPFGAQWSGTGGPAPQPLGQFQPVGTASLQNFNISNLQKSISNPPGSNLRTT

Set 1 — species: human; medium: microsomes or S9; tested at: 2 µM; time: 0.5 h
| SMILES | remaining compound |
| --- | --- |
| Cc1cc(Br)cc(C)c1NCc1nccn1CC(=O)NC(N)=O | 19.5% |
| COc1cc(C)c(Cl)cc1S(=O)(=O)Nc1ccc(Nc2cc(N(C)C)nc(C)n2)cc1 | 76.8% |
| CCOC(=O)c1cc2n(n1)CC(C)(C(=O)NCCCOC)N(c1ccc(C)c(Cl)c1)C2=O (stereo not drawn) | 0.429% |
| COc1ccc(Cn2nc(-c3ccc(O)cc3)n(-c3ccc(OCCN(C)C)cc3)c2=O)cc1 | 65.1% |
| Cc1ccc(N(Cc2ccc(F)cc2)N(C)CC(=O)NC2CCCCC2)cc1 | 0.0234% |
| Cc1ncoc1C(=O)N1C2CCC1Cn1c(nnc1-c1ccccc1)C2 (stereo not drawn) | 88.1% |
| COc1ccccc1N1C[C@@H]2C[C@@H](c3nccn3-c3cccc(C)c3)N3CCC[C@@]23C1=O | 29.3% |
| CCC(C)NCc1ccccc1-c1ccc(S(C)(=O)=O)cc1 (stereo not drawn) | 96.5% |
| Cc1nn(C)c(C)c1-c1cc(C(=O)NCCc2c[nH]c3ccccc23)[nH]n1 | 73.2% |
| CC1CC(N(C(=O)Nc2ccc(Cl)c(Cl)c2)c2ccccc2)c2ccccc2N1C(=O)Nc1ccc(Cl)c(Cl)c1 (stereo not drawn) | 55.7% |
| N#Cc1cc(NC(CCO)C2CCOCC2)nc2ccc(Cl)cc12 (stereo not drawn) | 26.2% |
| O=C(Nc1ccccc1-c1cn2ccccc2n1)c1ccc(Cn2ccnc2)cc1 | 0.0174% |
| COCCOc1cc(=O)n2c(c1C(=O)NCCC1=CCCCC1)CCOCC2 | 48.6% |
| O[C@H]1Cc2ccccc2[C@H]1Nc1nc(-c2ccccn2)nc2c1CCNC2 | > 100% |
| CN1C(=O)c2cccc(-c3cc(Cl)cc(Cl)c3)c2C1(C)C | 73.4% |
| Cc1cc(CO)cc(Oc2nc(Cl)nc(Cl)c2C(C)C)c1 | 22.5% |
| COc1cc(NC(=O)CCC(=O)OC(C)C)nc(OC)n1 | 29.7% |

Set 2 — mode: agonist
Target: Beta-1 adrenergic receptor (ADRB1, Homo sapiens, UniProt P08588)
Chain of UniProt P08588 (whole entry, looked up): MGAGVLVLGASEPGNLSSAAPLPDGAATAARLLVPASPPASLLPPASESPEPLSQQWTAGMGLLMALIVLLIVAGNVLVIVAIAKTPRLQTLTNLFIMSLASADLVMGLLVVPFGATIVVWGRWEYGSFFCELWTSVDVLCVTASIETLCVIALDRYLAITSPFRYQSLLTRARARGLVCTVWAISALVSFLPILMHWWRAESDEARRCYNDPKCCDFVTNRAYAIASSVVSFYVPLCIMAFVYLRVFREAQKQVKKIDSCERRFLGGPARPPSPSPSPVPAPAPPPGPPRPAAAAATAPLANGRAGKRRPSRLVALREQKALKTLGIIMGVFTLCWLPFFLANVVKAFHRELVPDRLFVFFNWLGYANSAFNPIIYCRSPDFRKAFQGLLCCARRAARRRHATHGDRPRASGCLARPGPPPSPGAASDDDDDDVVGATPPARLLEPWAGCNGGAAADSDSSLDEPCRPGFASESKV
| SMILES | EC50 [µM] |
| --- | --- |
| COc1ccccc1N1CCN([C@H]2[C@@H]3OC[C@@H](O3)[C@@H](NCc3ccc4c(c3)OCO4)[C@@H]2O)CC1 | ≥ 100 |
| Cc1cc(=O)oc2cc(NC(=O)[C@H](CCCCN)NC(=O)[C@H](CC3CCCCC3)NC(=O)OCC3c4ccccc4-c4ccccc43)ccc12 | ≥ 100 |
| COc1ccccc1N1CCN(C(=O)c2ccc3c(c2)OCCO3)CC1 | ≥ 100 |
| c1cnc2c(CN3CCN(c4ccc5nccnc5n4)CC3)cccc2c1 | ≥ 100 |
| CN1CCN(C)c2cc(-c3ccc(N4CCOCC4)cc3)ncc2C1 | ≥ 100 |
| CCC(CC)C(=O)Nc1ccc([C@@H](O)[C@H]2COCC(=O)N2)cc1 | ≥ 100 |
| Cc1noc2c(-c3cnn(C)c3)cc(-c3cccs3)nc12 | ≥ 100 |
| O=C1COC[C@H]([C@H](O)c2ccc(NC(=O)c3ccccc3)cc2)N1 | ≥ 100 |
| OC(CNc1nccc(-c2cccnc2)n1)COc1ccc(Cl)cc1 (stereo not drawn) | ≥ 100 |
| CCN1CCN(CC(O)COc2cccc(CNCCc3cccc(C)n3)c2)CC1 (stereo not drawn) | ≥ 100 |
| Cc1cnccc1CN(C)Cc1ccc2c(C)cc(=O)oc2c1 | 1 |

Set 3 — observed: cell-free assay; technique: competition with immobilised ligand; tested at: 1 µM
Compound: C[C@H](c1cccc(C#N)c1)n1cc(Cl)cc(C(N)=O)c1=N
| target | remaining binding [%] |
| --- | --- |
| Glycogen synthase kinase-3 alpha (GSK3A, Homo sapiens, UniProt P49840) | 61 |
| Serine/threonine-protein kinase SIK2 (SIK2, Homo sapiens, UniProt Q9H0K1) | 100 |
| Serine/threonine-protein kinase VRK2 (VRK2, Homo sapiens, UniProt Q86Y07) | 79 |
| Receptor tyrosine-protein kinase erbB-4 (ERBB4, Homo sapiens, UniProt Q15303) | 100 |
| SRSF protein kinase 2 (SRPK2, Homo sapiens, UniProt P78362) | 100 |
| Serine/threonine-protein kinase 36 (STK36, Homo sapiens, UniProt Q9NRP7) | 75 |
| Serine/threonine-protein kinase WNK4 (WNK4, Homo sapiens, UniProt Q96J92) | 97 |
| Casein kinase I isoform epsilon (CSNK1E, Homo sapiens, UniProt P49674) | 99 |
| MAP kinase-interacting serine/threonine-protein kinase 2 (MKNK2, Homo sapiens, UniProt Q9HBH9) | 100 |
| Tyrosine-protein kinase HCK (HCK, Homo sapiens, UniProt P08631) | 98 |
| Serine/threonine-protein kinase Nek9 (NEK9, Homo sapiens, UniProt Q8TD19) | 79 |
| Cyclin-dependent kinase 11A (CDK11A, Homo sapiens, UniProt Q9UQ88) | 100 |
| Hepatocyte growth factor receptor (MET, Homo sapiens, UniProt P08581, M1250T) | 100 |
| Serine/threonine-protein kinase WNK1 (WNK1, Homo sapiens, UniProt Q9H4A3) | 89 |
| Phosphatidylinositol 4,5-bisphosphate 3-kinase catalytic subunit alpha isoform (PIK3CA, Homo sapiens, UniProt P42336, E545K) | 82 |
| Serine/threonine-protein kinase RIO1 (RIOK1, Homo sapiens, UniProt Q9BRS2) | 100 |
| Epidermal growth factor receptor (EGFR, Homo sapiens, UniProt P00533, L858R/T790M) | 89 |
| Tyrosine-protein kinase Tec (TEC, Homo sapiens, UniProt P42680) | 100 |

Set 4 — observed: enzyme activity; mode: inhibitor; tested at: 0.5 µM; reference: control
Target: Dual serine/threonine and tyrosine protein kinase (DSTYK, Homo sapiens, UniProt Q6XUX3)
Chain of UniProt Q6XUX3 (whole entry, looked up): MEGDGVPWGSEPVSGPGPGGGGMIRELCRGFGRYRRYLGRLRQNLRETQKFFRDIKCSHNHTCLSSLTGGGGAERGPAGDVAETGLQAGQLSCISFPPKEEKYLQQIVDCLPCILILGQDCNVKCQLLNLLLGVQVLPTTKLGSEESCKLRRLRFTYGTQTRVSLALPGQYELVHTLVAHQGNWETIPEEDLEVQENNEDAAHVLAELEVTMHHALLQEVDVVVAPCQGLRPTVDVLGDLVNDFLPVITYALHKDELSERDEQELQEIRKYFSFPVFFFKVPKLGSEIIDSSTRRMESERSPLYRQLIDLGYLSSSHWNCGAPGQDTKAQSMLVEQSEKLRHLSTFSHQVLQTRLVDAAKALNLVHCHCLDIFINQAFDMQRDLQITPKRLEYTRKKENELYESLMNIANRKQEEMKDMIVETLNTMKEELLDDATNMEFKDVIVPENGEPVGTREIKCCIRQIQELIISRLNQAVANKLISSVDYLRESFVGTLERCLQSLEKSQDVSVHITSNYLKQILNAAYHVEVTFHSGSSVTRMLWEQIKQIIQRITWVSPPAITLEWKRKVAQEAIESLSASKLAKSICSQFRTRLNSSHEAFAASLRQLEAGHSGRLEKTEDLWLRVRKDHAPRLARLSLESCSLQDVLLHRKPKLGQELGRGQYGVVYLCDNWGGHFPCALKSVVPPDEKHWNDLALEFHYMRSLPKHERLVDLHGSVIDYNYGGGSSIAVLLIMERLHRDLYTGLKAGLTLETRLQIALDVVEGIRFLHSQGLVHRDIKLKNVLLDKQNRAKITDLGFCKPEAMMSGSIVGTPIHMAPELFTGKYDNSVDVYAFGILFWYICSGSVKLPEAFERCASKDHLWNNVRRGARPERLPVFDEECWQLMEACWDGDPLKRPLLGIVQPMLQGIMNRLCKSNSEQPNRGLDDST
| SMILES | remaining activity [%] |
| --- | --- |
| CCCCc1c(-c2ccc(O)cc2)[nH]c2nccnc12 | 88.9 |
| NC(=O)c1ccc(-c2nc(-c3ccc4c(c3)OCCO4)c(-c3ccccn3)[nH]2)cc1 | 93.1 |
| NC(=O)c1cccc(-c2cc(Nc3ccc(OC(F)(F)F)cc3)ncn2)c1 | 95.8 |
| O=C(O)/C=C/c1cc(Br)c(Br)c(Br)c1Br | 98.2 |
| O=C1NC(=O)/C(=C/c2ccc3c(c2)OC(F)(F)O3)S1 | 89.3 |
| O=c1c(-c2ccc(F)cc2)c(-c2ccncc2)[nH]n1-c1ccc(Cl)cc1 | 92.9 |
| COc1cc2c(Nc3ccc(Br)cc3F)ncnc2cc1OCC1CCN(C)CC1 | 96 |
| N#CC(c1ccnc(NCCc2cccnc2)n1)c1nc2ccccc2s1 (stereo not drawn) | 93.4 |
| O=C1c2ccccc2-c2nc3nnnn3nc21 | 81.5 |
| CC(C)n1cnc2c(Nc3cccc(Cl)c3)nc(NCCO)nc21 | 97 |
| C[C@@H](N)[C@H]1CC[C@H](C(=O)Nc2ccncc2)CC1 | 101 |
| Clc1ccc(Nc2nnc(Cc3ccncc3)c3ccccc23)cc1 | 96.5 |
| CCN(CC)CCCCN1c2ccccc2Oc2ccc(Cl)cc21 | 106 |
| O=Nc1c(-c2c(O)[nH]c3ccccc23)[nH]c2ccccc12 | 108 |
| CC(C)N(CCC(=O)c1ccc2ccccc2c1)Cc1ccccc1 | 84.9 |
| O=C(c1ccccc1)c1ccc(N2CCOCC2)cc1O | 86.2 |
| c1cc(-c2cnn3cc(-c4ccc(OCCN5CCCCC5)cc4)cnc23)ccn1 | 98.3 |
| FC(F)(F)c1ccc(/C=C/c2nc(COc3ccc(CCCCn4ccnn4)cc3)co2)cc1 | 88.8 |
| CC(C)(C)c1nc2c3cc[nH]c(=O)c3c3cc(F)ccc3c2[nH]1 | 62 |
| Nc1nc(Nc2ccc(S(N)(=O)=O)cc2)nn1C(=S)Nc1c(F)cccc1F | 17.8 |
| CNc1cc2c(Nc3cccc(Br)c3)ncnc2cn1 | 94.1 |
| N#C/C(=C(/N)SC1C=CC=CC1)c1cccc(C(O)c2ccncc2)c1 (stereo not drawn) | 109 |
| COc1cc2c(N3CCN(C(=O)Nc4ccc(OC(C)C)cc4)CC3)ncnc2cc1OCCCN1CCCCC1 | 92.7 |

Excerpt of the above (set 4):
| SMILES | remaining activity [%] |
| --- | --- |
| FC(F)(F)c1ccc(/C=C/c2nc(COc3ccc(CCCCn4ccnn4)cc3)co2)cc1 | 88.8 |
| CC(C)(C)c1nc2c3cc[nH]c(=O)c3c3cc(F)ccc3c2[nH]1 | 62 |
| Nc1nc(Nc2ccc(S(N)(=O)=O)cc2)nn1C(=S)Nc1c(F)cccc1F | 17.8 |
| CNc1cc2c(Nc3cccc(Br)c3)ncnc2cn1 | 94.1 |
